Measured values pooled from the literature.
Parts stem from different laboratories: compare values within a part only. Changes are numbered by the printed parent chain.

Series 1 — technique: protein-binding microarray; form: double-stranded DNA, one strand shown; sample: in vitro; concentration: 0.8 µM; notes: whole 60-bp probe, no competitor; direction: higher = stronger binding; all sequences stand within: … GTCTTGATTCGCTTGACGCTGCTG
Target: Centromere-binding protein 1, full length, N-terminal tag (CBF1, Saccharomyces cerevisiae, UniProt P17106, residues 1-351)
Sequence of UniProt P17106 (whole entry, looked up): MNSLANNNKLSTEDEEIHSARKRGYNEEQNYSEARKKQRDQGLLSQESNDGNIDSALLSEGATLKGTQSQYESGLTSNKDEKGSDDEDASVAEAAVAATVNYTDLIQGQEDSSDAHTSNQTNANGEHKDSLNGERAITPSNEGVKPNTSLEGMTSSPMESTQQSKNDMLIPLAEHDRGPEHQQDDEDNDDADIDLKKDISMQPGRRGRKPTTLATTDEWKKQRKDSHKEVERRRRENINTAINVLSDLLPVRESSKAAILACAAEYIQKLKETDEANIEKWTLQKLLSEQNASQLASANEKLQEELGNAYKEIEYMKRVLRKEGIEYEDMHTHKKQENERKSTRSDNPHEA
| Oligonucleotide | fluorescence intensity [a.u.] |
| --- | --- |
| GAATAAACCTCCCACCACCTGATAATCTGTATGTAG | 653 |
| GAAAAACTGAGTCATCACGTAATATTCTAATTATAG | 577 |
| GAAATCCTTGTCAATAACGTGCTTGAGTGCTCATAG | 634 |
| CTACCATTAAATTGTCACCTTACTCTCGGAAAATTC | 630 |
| CTAGCGGCGGAAAAAAACGTGACGCCTTTTAGCTTC | 3470 |
| GAATCGGATAGCTTCCGTGCGCAACCACATTACTAG | 500 |
| CTACTTCCTGAAACCCACGCGTCACTGCTATACTTC | 519 |
| CTACCACACACCGCGCACACGTGCTTTATTTCTTTC | 5110 |
| CTAACTTTTCCTAACGGTGTGACCATATTGTACTTC | 792 |
| GAAACACGAAGCGGCCACGTGGGTCTGCGATGGTAG | 4080 |
| GAAATATATGATCGTGATTATACACCGTTATTTTAG | 605 |
| CTAACAAAAAGACCTCACGTATTTTATGAAATTTTC | 519 |
| GAATTCTTTGAGATACACGTTACCAAAAGAATATAG | 877 |
| GAATCATTCTTTAACATCACAATGCTTTATTATTAG | 528 |
| GAACTATTTCGGTAACATCAAATATTTGTCAACTAG | 491 |
| TGTACGAAGCTATTGCAGGTGTGTATAGTAGTTAGG | 560 |
| CTAGAGCGGTAATCATGAGGGTCCCTGGTAGTATTC | 498 |
| CTAAGCCATCAAGGTAACGTGTTTACCATCTAATTC | 726 |
| GAATTATATTGCAAGCATCAGATTAATCATTCATAG | 518 |

Series 2 — technique: DHFR PCA, deep sequencing; sample: yeast; added: (+)-ABA 0.39 µM; reference: wild-type fitted maximum; direction: higher = stronger binding
Target: ABI1, truncated, D143A, DHFR fusion (Arabidopsis thaliana)
Notes: methotrexate growth selection, single substitutions
Parent: PYL1, truncated, DHFR fusion (Arabidopsis thaliana); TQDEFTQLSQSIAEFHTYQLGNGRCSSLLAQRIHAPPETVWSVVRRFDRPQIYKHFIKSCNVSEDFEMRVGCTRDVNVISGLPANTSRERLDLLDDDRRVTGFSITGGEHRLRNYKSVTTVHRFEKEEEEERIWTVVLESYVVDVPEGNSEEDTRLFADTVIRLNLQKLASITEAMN; partner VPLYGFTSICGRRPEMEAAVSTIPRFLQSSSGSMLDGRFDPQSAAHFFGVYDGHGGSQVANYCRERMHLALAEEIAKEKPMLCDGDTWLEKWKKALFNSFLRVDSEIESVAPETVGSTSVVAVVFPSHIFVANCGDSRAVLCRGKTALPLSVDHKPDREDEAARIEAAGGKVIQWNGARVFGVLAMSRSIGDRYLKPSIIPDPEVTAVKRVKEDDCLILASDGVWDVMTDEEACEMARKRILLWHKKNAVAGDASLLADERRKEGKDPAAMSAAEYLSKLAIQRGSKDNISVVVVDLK
| Substitution | relative binding score [%] |
| --- | --- |
| A175C | 26.4 |
| R155I | 12.5 |
| N61Y | 48.2 |
| F56N | 1.97 |
| D75G | -6.73 |
| S150H | -3.27 |
| E4M | 37.8 |
| S104F | -1.64 |
| T17F | -13.4 |
| I57L | 7.33 |
| S150I | -9.42 |
| S150Y | -10.4 |
| K168G | 2.56 |
| F157Y | 37.1 |

Series 3 — technique: RNA Bind-n-Seq; form: RNA; sample: in vitro; concentration: 365 nM; reference: no-protein control; direction: higher = stronger binding
Target: RNA binding protein fox-1 homolog 2, RRM domain, GST-SBP tag (RBFOX2, Homo sapiens, UniProt O43251-10, residues 100-194)
Notes: natural RNA segment, single round, ends assumed
All sequences stand within: GGGAGUUCUACAGUCCGACGAUC … UGGAAUUCUCGGGUGCCAA
Target sequence (chain): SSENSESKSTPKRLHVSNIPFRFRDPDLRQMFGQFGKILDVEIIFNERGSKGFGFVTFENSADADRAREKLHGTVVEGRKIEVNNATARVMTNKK
| Oligonucleotide | RBNS enrichment (R) |
| --- | --- |
| AGAGGGGCAGGCCCUGCACUGUCCUGCUCCACAGUGUUGGCGAGAGGAGGGGCCCGUUGUCUCCCUGGCCCUCAAGGCCUCCCACAGUGACUCGGGCUCCUGUGCCCUUA | 0.504 |
| UUUAUACUGAAUUGUCAUCAAUCAGUCCUACCAGAUGGAUUUCAACAUUUAAACCUGGAGACUCUUCGUGUCUUGAAUUAGGAUGUUUGUCCAGUAAUAAAAUAUAGAAC | 0.803 |
| UUAAGAGUAUUAAAACUUAAAACCAUUUUUUGACUCUGAUUUUAAGUACAUUUUUAUAUGUCAGUUGCUGCCCUUCACACUACCAGGCCCUGCAGCCACAGUGUUCUGUU | 0.319 |
| UUAGGCAACUUGUUUCAUAUUCUGGGCAUUUUAGUAGCUACAGUAUUUUGCAUUUAAAAUGUAAUUACUCUUAGUAUUGUACAGCCCUAUAAUGUAUGAGAACUAGUUUC | 0.383 |
| GGGUUUUGAUUUCAGUUUUCCCCCUUUCUCUGCCCUGGGGGCUGGGCUCCUUAUUGCUGCUUAGGCCUAGAAAGUUUAAGUAUGUGGAAGAGGAGAGUGAGUUGUAAGUU | 0.576 |
| AGAGUCAAAUGGACAGUAGAAGCAUGUGAUAGCCAGAAGGGCUGAGGCUGAUCUGGGUCCCCCAAAGCCCAGAGAGAGAGAGAUAGACUCUGCACAACCUCUCGGUGCUA | 16.8 |
| AAUGGUGAUAAUAAUGCCUACCUCCCGAGGUUGUUGUAAGAAUUAUAAGCACAAAUGUAUGUAAAGUGCCUGGCACAAAGUAGGUGCUCAAUAAAUGGUAGCUAUUAUAA | 2.15 |
| AAACAAAAACAAACCUUUUGGUAACUGUGCACUGUGUCCUUUAGCCAGGGCCGUGCCAACUUAUGAAGACACUGCAGCUUGAGAGGGGCUUUGCUGAGGCUUCCCCUUGG | 1.03 |

Series 4 — target: CCND1, cyclin fold, Cln2 fusion (human); technique: yeast growth competition, sequencing; sample: yeast; notes: weak parent motif; reference: not given; direction: higher = stronger binding
Parent: DBF4B docking peptide (human); LGYLYLLLTQSLW
| Substitution | normalised enrichment score |
| --- | --- |
| T9A | 0.219 |
| W13A | -0.149 |
| L12A | 0.107 |
| L7A | 0.345 |
| G2A | -0.298 |
| Y5A | 0.233 |
| S11A | 0.0394 |

Some of these lines once more (series 3):
| Oligonucleotide | RBNS enrichment (R) |
| --- | --- |
| UUAGGCAACUUGUUUCAUAUUCUGGGCAUUUUAGUAGCUACAGUAUUUUGCAUUUAAAAUGUAAUUACUCUUAGUAUUGUACAGCCCUAUAAUGUAUGAGAACUAGUUUC | 0.383 |
| AAUGGUGAUAAUAAUGCCUACCUCCCGAGGUUGUUGUAAGAAUUAUAAGCACAAAUGUAUGUAAAGUGCCUGGCACAAAGUAGGUGCUCAAUAAAUGGUAGCUAUUAUAA | 2.15 |
| AGAGUCAAAUGGACAGUAGAAGCAUGUGAUAGCCAGAAGGGCUGAGGCUGAUCUGGGUCCCCCAAAGCCCAGAGAGAGAGAGAUAGACUCUGCACAACCUCUCGGUGCUA | 16.8 |
